Experimental data gathered from unrelated publications.
A part holds a random share of what one study measured. Substitutions count along the parent as printed.
Sequence of UniProt Q8L7G0 (whole entry, looked up): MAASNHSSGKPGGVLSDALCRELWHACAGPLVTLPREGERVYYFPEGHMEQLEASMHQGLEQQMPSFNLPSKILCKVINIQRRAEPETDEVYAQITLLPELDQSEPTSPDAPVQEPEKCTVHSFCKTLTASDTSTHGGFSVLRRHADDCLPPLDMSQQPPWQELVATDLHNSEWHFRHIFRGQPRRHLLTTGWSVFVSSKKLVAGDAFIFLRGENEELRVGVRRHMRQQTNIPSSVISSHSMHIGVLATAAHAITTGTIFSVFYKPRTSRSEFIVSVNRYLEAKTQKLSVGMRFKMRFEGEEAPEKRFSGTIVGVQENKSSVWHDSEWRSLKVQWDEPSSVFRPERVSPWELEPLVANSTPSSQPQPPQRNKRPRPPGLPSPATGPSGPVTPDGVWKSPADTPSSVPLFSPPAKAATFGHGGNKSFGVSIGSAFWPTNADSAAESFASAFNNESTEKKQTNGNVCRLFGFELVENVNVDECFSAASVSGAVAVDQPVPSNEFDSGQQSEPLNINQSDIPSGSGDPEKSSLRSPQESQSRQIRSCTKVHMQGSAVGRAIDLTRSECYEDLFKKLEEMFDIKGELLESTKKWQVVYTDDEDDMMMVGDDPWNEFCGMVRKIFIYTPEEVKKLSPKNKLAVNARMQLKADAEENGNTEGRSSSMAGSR
Sequence of UniProt Q9FKM7 (whole entry, looked up): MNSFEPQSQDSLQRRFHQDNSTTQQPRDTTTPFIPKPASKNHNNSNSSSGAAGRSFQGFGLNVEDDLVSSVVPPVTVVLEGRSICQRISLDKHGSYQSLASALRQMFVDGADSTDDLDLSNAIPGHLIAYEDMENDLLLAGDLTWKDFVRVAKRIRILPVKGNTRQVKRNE
Sequence of UniProt P93024 (whole entry, looked up): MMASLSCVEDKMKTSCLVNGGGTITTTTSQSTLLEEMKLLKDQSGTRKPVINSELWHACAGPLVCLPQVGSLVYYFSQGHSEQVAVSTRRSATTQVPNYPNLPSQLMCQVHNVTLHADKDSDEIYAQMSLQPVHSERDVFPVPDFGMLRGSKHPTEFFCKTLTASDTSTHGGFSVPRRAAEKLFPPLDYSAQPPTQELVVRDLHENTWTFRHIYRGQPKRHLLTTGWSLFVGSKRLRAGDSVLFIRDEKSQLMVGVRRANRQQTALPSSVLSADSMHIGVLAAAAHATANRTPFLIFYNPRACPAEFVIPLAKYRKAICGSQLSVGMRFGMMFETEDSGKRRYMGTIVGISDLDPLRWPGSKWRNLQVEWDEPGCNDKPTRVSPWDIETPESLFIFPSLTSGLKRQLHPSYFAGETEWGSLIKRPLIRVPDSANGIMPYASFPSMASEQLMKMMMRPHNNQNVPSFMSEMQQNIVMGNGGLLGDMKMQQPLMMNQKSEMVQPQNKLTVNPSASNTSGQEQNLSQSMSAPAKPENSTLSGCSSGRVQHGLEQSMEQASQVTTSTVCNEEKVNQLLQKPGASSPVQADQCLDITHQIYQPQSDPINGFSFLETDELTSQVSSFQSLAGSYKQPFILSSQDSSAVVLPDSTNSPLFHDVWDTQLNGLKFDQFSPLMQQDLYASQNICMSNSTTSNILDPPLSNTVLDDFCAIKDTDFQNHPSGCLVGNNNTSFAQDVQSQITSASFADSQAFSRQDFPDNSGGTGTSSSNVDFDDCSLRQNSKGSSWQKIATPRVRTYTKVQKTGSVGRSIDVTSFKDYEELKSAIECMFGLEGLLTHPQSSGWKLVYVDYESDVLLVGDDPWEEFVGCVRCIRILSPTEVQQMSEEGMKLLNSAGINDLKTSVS
Sequence of UniProt Q9XFM0 (whole entry, looked up): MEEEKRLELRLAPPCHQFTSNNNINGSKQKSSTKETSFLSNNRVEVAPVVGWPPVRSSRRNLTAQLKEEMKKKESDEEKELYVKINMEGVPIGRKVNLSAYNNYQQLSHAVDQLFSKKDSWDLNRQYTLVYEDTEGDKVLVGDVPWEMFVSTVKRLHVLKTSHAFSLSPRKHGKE
Sequence of UniProt Q9ZSY8 (whole entry, looked up): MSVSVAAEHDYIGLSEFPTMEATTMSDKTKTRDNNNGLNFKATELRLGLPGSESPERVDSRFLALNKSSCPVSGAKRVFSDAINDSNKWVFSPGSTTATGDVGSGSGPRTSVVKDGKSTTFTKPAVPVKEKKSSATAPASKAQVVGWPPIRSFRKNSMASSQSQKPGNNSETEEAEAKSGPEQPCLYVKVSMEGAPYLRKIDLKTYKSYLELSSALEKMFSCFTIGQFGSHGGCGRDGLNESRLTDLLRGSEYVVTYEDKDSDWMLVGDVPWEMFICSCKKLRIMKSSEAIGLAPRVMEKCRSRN
Sequence of UniProt Q84WU6 (whole entry, looked up): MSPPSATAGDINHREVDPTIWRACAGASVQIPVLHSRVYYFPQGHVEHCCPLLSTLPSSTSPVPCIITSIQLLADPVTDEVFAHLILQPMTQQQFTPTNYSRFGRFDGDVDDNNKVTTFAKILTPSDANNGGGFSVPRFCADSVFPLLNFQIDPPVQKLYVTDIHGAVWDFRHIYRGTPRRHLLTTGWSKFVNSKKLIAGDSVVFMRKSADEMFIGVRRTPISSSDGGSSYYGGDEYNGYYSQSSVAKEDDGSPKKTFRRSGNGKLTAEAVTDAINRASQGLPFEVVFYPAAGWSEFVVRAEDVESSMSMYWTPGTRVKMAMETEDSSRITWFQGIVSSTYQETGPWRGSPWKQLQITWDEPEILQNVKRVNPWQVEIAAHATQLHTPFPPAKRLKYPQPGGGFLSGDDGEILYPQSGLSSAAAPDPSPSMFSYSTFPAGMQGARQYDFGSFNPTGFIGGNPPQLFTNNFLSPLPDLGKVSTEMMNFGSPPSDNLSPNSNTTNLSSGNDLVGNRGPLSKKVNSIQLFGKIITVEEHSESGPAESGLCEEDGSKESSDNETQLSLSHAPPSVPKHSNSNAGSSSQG
Sequence of UniProt Q9ZTX9 (whole entry, looked up): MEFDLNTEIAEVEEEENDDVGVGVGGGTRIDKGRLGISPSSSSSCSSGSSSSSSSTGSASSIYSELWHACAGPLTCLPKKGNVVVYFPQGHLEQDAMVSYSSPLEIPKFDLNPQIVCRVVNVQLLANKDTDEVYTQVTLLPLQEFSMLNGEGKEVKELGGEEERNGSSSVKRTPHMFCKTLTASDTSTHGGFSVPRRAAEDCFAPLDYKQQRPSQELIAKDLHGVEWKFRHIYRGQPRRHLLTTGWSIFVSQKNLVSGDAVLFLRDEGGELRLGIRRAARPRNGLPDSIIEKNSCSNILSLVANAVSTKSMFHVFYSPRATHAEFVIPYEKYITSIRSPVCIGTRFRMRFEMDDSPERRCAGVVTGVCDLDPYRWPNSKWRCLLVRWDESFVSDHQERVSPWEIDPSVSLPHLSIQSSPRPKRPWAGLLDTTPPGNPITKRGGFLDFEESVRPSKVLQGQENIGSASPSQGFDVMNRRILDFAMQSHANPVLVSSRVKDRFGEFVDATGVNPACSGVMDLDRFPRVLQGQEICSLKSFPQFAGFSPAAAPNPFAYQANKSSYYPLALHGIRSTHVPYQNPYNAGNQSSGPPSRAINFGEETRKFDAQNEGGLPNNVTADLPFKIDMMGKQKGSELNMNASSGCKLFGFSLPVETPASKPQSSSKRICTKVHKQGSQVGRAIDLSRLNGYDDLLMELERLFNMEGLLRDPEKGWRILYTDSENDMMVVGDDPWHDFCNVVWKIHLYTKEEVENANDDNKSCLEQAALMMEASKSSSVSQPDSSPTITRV
Sequence of UniProt Q8RYC6 (whole entry, looked up): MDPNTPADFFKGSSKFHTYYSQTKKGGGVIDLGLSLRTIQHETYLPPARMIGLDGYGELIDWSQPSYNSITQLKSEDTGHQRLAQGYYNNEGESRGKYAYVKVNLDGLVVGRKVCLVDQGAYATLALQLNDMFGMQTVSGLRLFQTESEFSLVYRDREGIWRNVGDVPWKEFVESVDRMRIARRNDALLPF

Study 1
Target: CCND1, cyclin fold, Cln2 fusion (human)
Method: yeast growth competition, sequencing
Sample: yeast
Notes: strong parent motif
Relative to: not given
Reading: higher = stronger binding
Starting sequence: SCAPER docking peptide (human); SNARRSLNFGGST; partner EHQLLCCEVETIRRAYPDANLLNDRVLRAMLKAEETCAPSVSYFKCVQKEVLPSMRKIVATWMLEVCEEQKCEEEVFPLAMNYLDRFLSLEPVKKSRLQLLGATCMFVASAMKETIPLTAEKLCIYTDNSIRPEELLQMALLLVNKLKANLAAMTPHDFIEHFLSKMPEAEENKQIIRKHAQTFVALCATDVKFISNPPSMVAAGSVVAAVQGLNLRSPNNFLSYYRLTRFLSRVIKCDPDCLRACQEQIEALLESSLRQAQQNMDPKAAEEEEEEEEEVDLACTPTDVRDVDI
For `F9D`, “normalised enrichment score” read 0.101.
`S6C` — result for “normalised enrichment score”: 2.76.
Under “normalised enrichment score”, `L7W` is recorded as -0.124.
`G10A`: “normalised enrichment score” 0.966.
`N8C` — result for “normalised enrichment score”: 0.471.
`A3F`: “normalised enrichment score” 0.296.
Under “normalised enrichment score”, `R5S` is recorded as 0.427.
`S12E` — result for “normalised enrichment score”: 1.94.
Under “normalised enrichment score”, `A3Y` is recorded as 0.0367.
Under “normalised enrichment score”, `F9K` is recorded as -0.319.
`T13L` — result for “normalised enrichment score”: 1.57.
`S12W` — result for “normalised enrichment score”: 0.233.
Under “normalised enrichment score”, `F9H` is recorded as -0.159.
`N2K`: “normalised enrichment score” 0.746.
`T13V` — result for “normalised enrichment score”: 1.31.
For `A3T`, “normalised enrichment score” read 0.724.
`A3W`: “normalised enrichment score” 0.108.
`R4Q` — result for “normalised enrichment score”: 0.0642.
For `N2V`, “normalised enrichment score” read 0.72.
For `G11D`, “normalised enrichment score” read 1.67.
Under “normalised enrichment score”, `L7I` is recorded as 0.153.
`S1D` — result for “normalised enrichment score”: 0.814.
For `F9N`, “normalised enrichment score” read -0.538.
`N2M` — result for “normalised enrichment score”: 0.323.
`L7E` — result for “normalised enrichment score”: -0.11.

Study 2
Sequence: B1 (IAA20)
Method: two-hybrid
Notes: weak activation fusion
Reading: higher = firmer interaction
B1: IAA20 (Arabidopsis thaliana, UniProt O24410); chain MGRGRSSSSSSIESSSKSNPFGASSSTRNLSTDLRLGLSFGTSSGTQYFNGGYGYSVAAPAVEDAEYVAAVEEEEENECNSVGSFYVKVNMEGVPIGRKIDLMSLNGYRDLIRTLDFMFNASILWAEEEDMCNEKSHVLTYADKEGDWMMVGDVPWEMFLSTVRRLKISRANYHY
It gave 2 for positive tests (IAA28 (Arabidopsis thaliana, UniProt Q9XFM0); relative to: out of 4 tests).
IAA27 (Arabidopsis thaliana, UniProt Q9ZSY8); relative to: out of 2 tests — positive tests: 1.
It gave 0 for positive tests (ARF4 660-788 (Arabidopsis thaliana, UniProt Q9ZTX9); relative to: out of 2 tests).
The positive tests was 0 (ARF17 (Arabidopsis thaliana, UniProt Q84WU6); relative to: out of 2 tests).
The positive tests was 2 (IAA32 (Arabidopsis thaliana, UniProt Q8RYC6); relative to: out of 4 tests).
It gave 2 for positive tests (ARF5 788-902 (Arabidopsis thaliana, UniProt P93024); relative to: out of 4 tests).
IAA33 (Arabidopsis thaliana, UniProt Q9FKM7); relative to: out of 4 tests — positive tests: 2.
The positive tests was 0 (ARF18 482-602 (Arabidopsis thaliana, UniProt Q9C5W9); relative to: out of 4 tests).
For ARF1 538-665 (Arabidopsis thaliana, UniProt Q8L7G0); relative to: out of 4 tests: positive tests read 1.

Study 3
Target: ABI1, truncated, D143A, DHFR fusion (Arabidopsis thaliana)
Method: DHFR PCA, deep sequencing
Sample: yeast
Notes: methotrexate growth selection, single substitutions
Added: (+)-ABA 1.4 µM
Relative to: wild-type fitted maximum
Reading: higher = stronger binding
Starting sequence: PYL1, truncated, DHFR fusion (Arabidopsis thaliana); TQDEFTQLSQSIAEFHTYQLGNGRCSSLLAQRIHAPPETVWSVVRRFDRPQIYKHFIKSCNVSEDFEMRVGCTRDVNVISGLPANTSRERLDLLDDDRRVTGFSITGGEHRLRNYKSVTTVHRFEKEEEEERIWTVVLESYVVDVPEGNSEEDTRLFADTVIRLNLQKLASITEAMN
`A175K` — result for “relative binding score”: 47.5%.
`E4N` — result for “relative binding score”: 16.6%.
`E128Q`: “relative binding score” 71.2%.
Under “relative binding score”, `D97V` is recorded as 60.6%.
For `L169Q`, “relative binding score” read 8.62%.
Under “relative binding score”, `N85W` is recorded as 51.8%.
For `R99K`, “relative binding score” read 70.6%.
For `P36R`, “relative binding score” read 40.2%.
`R74F` — result for “relative binding score”: -1.77%.
`R88K` — result for “relative binding score”: 66.7%.
Under “relative binding score”, `K168A` is recorded as 24%.

Study 4
Target: Histone acetyltransferase KAT6A, winged helix 1, GST fusion (KAT6A, Homo sapiens, UniProt Q92794, residues 1-85)
Method: protein binding microarray
Form: double-stranded DNA, one strand shown
Sample: in vitro
Tested at: not given
Notes: 8-mer, flanks averaged, mean of 2 arrays, mostly near background
Relative to: not given
Reading: higher = stronger binding
Construct (chain): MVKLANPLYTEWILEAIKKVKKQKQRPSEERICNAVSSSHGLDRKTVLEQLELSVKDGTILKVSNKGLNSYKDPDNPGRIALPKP
The E-score of `TAATGAAA` is reported as -0.152.
The E-score of `TAACCGGA` is reported as 0.172.
With `ATGGCGGG` the E-score was 0.208.
The E-score of `GAATGAAC` is reported as -0.0961.
The E-score of `CTCCCGTC` is reported as 0.265.
`AAAGACAT` gave an E-score of -0.0508.
With `CCCCCCAC` the E-score was -0.275.
With `GCACTTCA` the E-score was -0.0138.
`TGATTAAA` has an E-score of -0.0631.
With `AAGAACGG` the E-score was 0.151.
The E-score of `AGTGGATA` is reported as -0.122.
`GCCCTTCC` has an E-score of -0.0789.
For `GGATAAAC`, the E-score was 0.00263.
With `CGGATTCA` the E-score was 0.0192.
`AATATTCT` gave an E-score of -0.067.
With `GAACGGCA` the E-score was 0.254.
`GAACCCAC` gave an E-score of -0.0603.
`ATATATAA` has an E-score of -0.157.

Study 5
Target: Interferon regulatory factor 3, full length, phosphomimetic (IRF3, Homo sapiens, UniProt Q14653, residues 1-427, S386D/S396D/S398D/S402D/T404D/S405D)
Sequence of UniProt Q14653 (whole entry, unmodified, looked up): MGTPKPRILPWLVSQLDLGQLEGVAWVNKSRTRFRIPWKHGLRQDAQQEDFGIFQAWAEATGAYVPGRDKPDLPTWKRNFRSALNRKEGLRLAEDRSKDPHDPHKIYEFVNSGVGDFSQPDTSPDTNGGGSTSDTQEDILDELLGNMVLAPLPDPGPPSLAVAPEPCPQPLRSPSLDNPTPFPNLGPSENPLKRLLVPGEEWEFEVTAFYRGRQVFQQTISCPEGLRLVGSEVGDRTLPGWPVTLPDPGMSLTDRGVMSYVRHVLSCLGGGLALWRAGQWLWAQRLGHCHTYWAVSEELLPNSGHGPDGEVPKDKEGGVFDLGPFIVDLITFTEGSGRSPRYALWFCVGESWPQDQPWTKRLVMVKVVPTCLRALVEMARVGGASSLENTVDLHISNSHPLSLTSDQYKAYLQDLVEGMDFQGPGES
Method: protein-binding microarray
Form: double-stranded DNA, one strand shown
Sample: in vitro
Tested at: 2540 nM top
Notes: 60-bp whole probe
Added: salmon DNA 0.4 mg/ml
Relative to: random background probes
Reading: higher = stronger binding
Constant ends, left off below: GCCTAGCAC … GTCTTGATTCGCTTGACGCTGCTG
Under “fitted relative affinity”, `TCAAAAAATGATTGGTTACTGTGCTAG` is recorded as -0.457 z-score.
`GAAGATTTCGGGTTTCGAGACGTGCTA` — result for “fitted relative affinity”: 2.49 z-score.
`GCTCCAGGAAGCCTTGCCTGGTGCTAG`: “fitted relative affinity” -0.809 z-score.
`GAAAATCAACCAGGTGGTGTGTGCTAG`: “fitted relative affinity” -0.135 z-score.
Under “fitted relative affinity”, `GACGGTCTTGGTATCGGGACGTGCTAG` is recorded as 0.687 z-score.
`GACGGTGTCCTACTGCTGACGTGCTAG`: “fitted relative affinity” 0.808 z-score.
`TTAGGTATCGACTTGCGGTTAGTGCTA`: “fitted relative affinity” 0.579 z-score.
`TTAGATTTCGTGTTTCGATTAGTGCTA` — result for “fitted relative affinity”: 2.19 z-score.
For `TCAGTTCTTTTTTTCAAACTGTGCTAG`, “fitted relative affinity” read 2.64 z-score.
`GACGAATTCAGACTGGAGACGTGCTAG`: “fitted relative affinity” 0.264 z-score.
`TTAGTTATCGGGACTGGATTAGTGCTA` — result for “fitted relative affinity”: 0.465 z-score.
`GACGGTATCGGTAGCGGGACGTGCTAG`: “fitted relative affinity” 2 z-score.
Under “fitted relative affinity”, `TCAGGTATCGGGACTGGGTTAGTGCTA` is recorded as 1.57 z-score.
`GACGGACAGGGGTATCGGGACGTGCTA` — result for “fitted relative affinity”: -0.545 z-score.
`GACGGTTTCGACACTGGGTACGTGCTA` — result for “fitted relative affinity”: 3.23 z-score.
For `TTAGGTTTCCTTATACTTTAGTGCTAG`, “fitted relative affinity” read 7.38 z-score.
`TCAGTTACCCACCTCAGACTGTGCTAG`: “fitted relative affinity” 2.56 z-score.

Study 6
Target: CRIPT, C-terminal peptide
Method: DHFR complementation, deep sequencing
Sample: yeast
Notes: single substitutions, model-inferred values
Relative to: wild type
Reading: higher = weaker binding
Starting sequence: ERBIN, PDZ domain 1 (human); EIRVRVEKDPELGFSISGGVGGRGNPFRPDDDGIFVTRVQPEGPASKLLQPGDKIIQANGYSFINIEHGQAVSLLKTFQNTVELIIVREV; partner TKNYKQTSV
For `Q57I`, “binding free energy change” read 0.103 kcal/mol.
Under “binding free energy change”, `V39I` is recorded as 0.22 kcal/mol.
`Q40E`: “binding free energy change” 0.124 kcal/mol.
`V6I` — result for “binding free energy change”: 0.0834 kcal/mol.
`F27K`: “binding free energy change” 1.21 kcal/mol.
For `L12T`, “binding free energy change” read 1.47 kcal/mol.
Under “binding free energy change”, `D31T` is recorded as 0.726 kcal/mol.
`G21W`: “binding free energy change” 0.199 kcal/mol.
`I56E` — result for “binding free energy change”: 0.192 kcal/mol.
Under “binding free energy change”, `I55A` is recorded as 0.603 kcal/mol.
Under “binding free energy change”, `Y61P` is recorded as 0.783 kcal/mol.
`I86H`: “binding free energy change” 0.701 kcal/mol.
For `Q79H`, “binding free energy change” read 0.13 kcal/mol.
`N65E` — result for “binding free energy change”: 0.0121 kcal/mol.
For `S17N`, “binding free energy change” read 1.58 kcal/mol.
`D32V` — result for “binding free energy change”: 0.225 kcal/mol.
Under “binding free energy change”, `A45Y` is recorded as 1.45 kcal/mol.
For `P41C`, “binding free energy change” read 0.323 kcal/mol.
`P51Y`: “binding free energy change” 0.321 kcal/mol.
Under “binding free energy change”, `G13N` is recorded as 1.21 kcal/mol.
`N59H`: “binding free energy change” 0.323 kcal/mol.

Further values, each from its own experiment
`PhoQ, residues 284 288 289 292 302 303 ASTSDA` gave a fold induction of 14.3 (PhoP, residues 12 14 15 18 19 HEGLL (Escherichia coli, UniProt P23836); Sort-seq, item: YFP reporter; E. coli; PhoQ-PhoP variant library, added: 10 µM Mg2+; relative to: high Mg2+ state, higher = stronger signaling).

Repeated from above (study 2):
It gave 0 for positive tests (ARF4 660-788 (Arabidopsis thaliana, UniProt Q9ZTX9); relative to: out of 2 tests).
The positive tests was 0 (ARF17 (Arabidopsis thaliana, UniProt Q84WU6); relative to: out of 2 tests).
IAA27 (Arabidopsis thaliana, UniProt Q9ZSY8); relative to: out of 2 tests — positive tests: 1.
For ARF1 538-665 (Arabidopsis thaliana, UniProt Q8L7G0); relative to: out of 4 tests: positive tests read 1.
It gave 2 for positive tests (ARF5 788-902 (Arabidopsis thaliana, UniProt P93024); relative to: out of 4 tests).
The positive tests was 0 (ARF18 482-602 (Arabidopsis thaliana, UniProt Q9C5W9); relative to: out of 4 tests).
It gave 2 for positive tests (IAA28 (Arabidopsis thaliana, UniProt Q9XFM0); relative to: out of 4 tests).
IAA33 (Arabidopsis thaliana, UniProt Q9FKM7); relative to: out of 4 tests — positive tests: 2.
The positive tests was 2 (IAA32 (Arabidopsis thaliana, UniProt Q8RYC6); relative to: out of 4 tests).
